Measured values of several laboratories.
Lines come from different studies, so protocols differ.

| Compound | assay | system | setting | quantity | value |
| --- | --- | --- | --- | --- | --- |
| Cc1cc(NC2CCN(C(=O)OC3CCN(C(=O)/C=C/CN(C)C)C3)CC2)n2ncc(C(C)C)c2n1 (stereo not shown) | Phase I dose escalation CTCAE v4.0, refers to: peripheral oedema | patients with advanced solid tumours | dose not given, TIW dosing any grade | patients with adverse event | 9% |
| Cc1cc(-c2nnc(N)nc2-c2ccc(F)cc2)cc(Cl)n1 | refers to: Nausea | other solid tumours, IO-naive | oral, 100 mg once daily, all grades | patients with treatment-related AE | 73.7% |
| C[C@@H](c1ccc2nccn2c1)n1nnc2ncc(-c3cnn(C)c3)nc21 | refers to: treatment-related grade ≥3 Nausea | EGFR-mutant MET-altered NSCLC | oral, dose not given, all | patients with adverse events | 3% |
| CCOc1c([C@H](C)n2nc(C)c3c(N)ncnc32)cc(Cl)c(F)c1[C@@H]1CNC(=O)C1 | refers to: QRS ≤100 ms | previously treated B-cell malignancy | oral, 5 mg once daily, baseline below thresholds | patients | 100% |
| CNC(=O)c1ccc(-c2cnc3ncc(Cc4ccc5ncccc5c4)n3n2)cc1F | refers to: Dyspepsia | cancer patients | oral, 600 mg twice daily, all expansion cohorts, grade 3-4 | patients with adverse event | 0% |
| COc1cc(Nc2ncc3c(n2)-c2ccc(Cl)cc2C(c2c(F)cccc2OC)=NC3)ccc1C(=O)O | refers to: Anorexia, all grades | cancer patients, phase 1/2 | oral, dose not given, together with: pembrolizumab | patients with adverse event | 21% |
| CNC(=O)c1cc(Oc2ccc(NC(=O)Nc3cc(C(C)(C)C)nn3-c3ccc4ncccc4c3)c(F)c2)ccn1 | – | patients | oral, dose not given, cycles 1 and 2, Medium Cmax subgroup | patients with cardiac disorders | 7% |
| C=CC(=O)NC1CCN(c2ncc3ncnc(Nc4ccc(Oc5ccc6c(c5)ncn6C)c(C)c4)c3n2)CC1 | – | male patients | oral, dose not given, on-treatment adverse events | patients with feces hard | 0% |
| C[C@@H](Nc1cc(F)cc(F)c1)c1cc(C(=O)N(C)C)cc2c(=O)cc(N3CCOCC3)oc12 | refers to: Pruritus | advanced solid tumour patients | oral, dose not given, dose finding | patients discontinuing for AE | 0% |
| O=C(Nc1nc2cccc(-c3ccc(CN4CCS(=O)(=O)CC4)cc3)n2n1)C1CC1 | – | rheumatoid arthritis patients | oral, 100 mg twice daily, 4 weeks, regardless of relatedness | patients with first-degree AV block | 0% |

For quick reference, copied from above:
| Compound | assay | system | setting | quantity | value |
| --- | --- | --- | --- | --- | --- |
| CNC(=O)c1ccc(-c2cnc3ncc(Cc4ccc5ncccc5c4)n3n2)cc1F | refers to: Dyspepsia | cancer patients | oral, 600 mg twice daily, all expansion cohorts, grade 3-4 | patients with adverse event | 0% |
